# Experimental data gathered from unrelated publications.
# Compare with care: the assays were run in different laboratories.
# Organism: Mycobacteroides abscessus
Structure (SMILES),test,test system,setting,scale,measurement,result
O=C(CO/N=c1\cc2n(-c3ccc(Cl)cc3)c3ccccc3nc-2cc1Nc1ccc(Cl)cc1)NCc1ccc2c(c1)CCO2,bacterial growth,ATCC 19977,,,MIC,> 30 µM
O=C(CNc1ccc(OC(F)(F)F)cc1)NC12CC3CC(CC(C3)C1)C2,,,,,potency fold over aniline analogue,8 fold
Nc1nc(N)c(OCCCOc2ccccc2CCC(=O)O)c(CCCCO)n1,resazurin microtiter,ATCC 19977,,,MIC,76.7 µg/mL
CO[C@H]1/C=C/O[C@@]2(C)Oc3c(C)c(O)c4c(c3C2=O)C2=NC3(CCN(CC(C)C)CC3)NC2=C(NC(=O)/C(C)=C\C=C\[C@H](C)[C@H](O)[C@@H](C)[C@@H](O)[C@@H](C)[C@H](OC(C)=O)[C@@H]1C)C4=O,bacterial growth,subsp. abscessus clinical isolate,slow grower,,IC90,3.18 µM
C[C@H](NC(=O)CO/N=c1\cc2n(-c3ccc(Cl)cc3)c3ccccc3nc-2cc1Nc1ccc(Cl)cc1)C(=O)OC(C)(C)C,bacterial growth,clinical isolate,,,MIC,> 30 µM
CCc1nc(N)nc(N)c1OCCCOc1ccccc1CCC(=O)O,resazurin microtiter,ATCC 19977,,,MIC,10.1 µg/mL
CCCCCCC#Cc1cncc(-c2nnc(SCc3ccc(Cl)cc3)n2C)c1,,,,no activity below value,MIC,≥ 200 µM
Clc1ccc(Nc2cc3nc4ccccc4n(-c4ccc(Cl)cc4)c-3c/c2=N\OCc2ccccc2)cc1,bacterial growth,clinical isolate,,,MIC,> 30 µM
CC[C@H]1OC(=O)[C@H](C)[C@@H](O[C@H]2C[C@@](C)(OC)[C@@H](O)[C@H](C)O2)[C@H](C)[C@@H](O[C@@H]2O[C@H](C)C[C@H](N(C)C)[C@H]2O)[C@](C)(OC)C[C@@H](C)C(=O)[C@H](C)[C@@H](O)[C@]1(C)O,,"ATCC 19977, caseum surrogate","5 d, non-replicating",,MBC,100 µM
O=C(CNc1ccc(Br)cc1)NC1C2CC3CC(C2)CC1C3 (stereo not shown),,,,,potency fold over aniline analogue,16 fold

# Excerpt of the above:
Structure (SMILES),test,test system,setting,scale,measurement,result
Clc1ccc(Nc2cc3nc4ccccc4n(-c4ccc(Cl)cc4)c-3c/c2=N\OCc2ccccc2)cc1,bacterial growth,clinical isolate,,,MIC,> 30 µM
CC[C@H]1OC(=O)[C@H](C)[C@@H](O[C@H]2C[C@@](C)(OC)[C@@H](O)[C@H](C)O2)[C@H](C)[C@@H](O[C@@H]2O[C@H](C)C[C@H](N(C)C)[C@H]2O)[C@](C)(OC)C[C@@H](C)C(=O)[C@H](C)[C@@H](O)[C@]1(C)O,,"ATCC 19977, caseum surrogate","5 d, non-replicating",,MBC,100 µM
